Results pooled from the literature.
Numbers after ± are the reported error. Values after ≈ are worked out from the molar mass of the structure shown.
Chain of UniProt P21397 (whole entry, looked up): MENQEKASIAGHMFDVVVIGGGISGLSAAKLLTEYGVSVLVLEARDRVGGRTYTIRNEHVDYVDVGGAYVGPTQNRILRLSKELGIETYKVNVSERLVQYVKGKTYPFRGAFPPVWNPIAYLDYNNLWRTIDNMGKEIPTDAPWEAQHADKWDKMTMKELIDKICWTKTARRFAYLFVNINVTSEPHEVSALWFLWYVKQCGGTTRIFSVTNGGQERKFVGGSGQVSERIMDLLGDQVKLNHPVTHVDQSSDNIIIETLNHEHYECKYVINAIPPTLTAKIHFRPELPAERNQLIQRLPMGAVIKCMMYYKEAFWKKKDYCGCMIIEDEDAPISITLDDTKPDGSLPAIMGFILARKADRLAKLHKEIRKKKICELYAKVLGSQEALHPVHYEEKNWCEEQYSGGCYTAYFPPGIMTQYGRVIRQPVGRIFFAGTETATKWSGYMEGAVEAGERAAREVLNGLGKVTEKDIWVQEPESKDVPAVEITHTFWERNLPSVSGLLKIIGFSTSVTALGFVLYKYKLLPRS
Chain of UniProt P24463 (whole entry, looked up): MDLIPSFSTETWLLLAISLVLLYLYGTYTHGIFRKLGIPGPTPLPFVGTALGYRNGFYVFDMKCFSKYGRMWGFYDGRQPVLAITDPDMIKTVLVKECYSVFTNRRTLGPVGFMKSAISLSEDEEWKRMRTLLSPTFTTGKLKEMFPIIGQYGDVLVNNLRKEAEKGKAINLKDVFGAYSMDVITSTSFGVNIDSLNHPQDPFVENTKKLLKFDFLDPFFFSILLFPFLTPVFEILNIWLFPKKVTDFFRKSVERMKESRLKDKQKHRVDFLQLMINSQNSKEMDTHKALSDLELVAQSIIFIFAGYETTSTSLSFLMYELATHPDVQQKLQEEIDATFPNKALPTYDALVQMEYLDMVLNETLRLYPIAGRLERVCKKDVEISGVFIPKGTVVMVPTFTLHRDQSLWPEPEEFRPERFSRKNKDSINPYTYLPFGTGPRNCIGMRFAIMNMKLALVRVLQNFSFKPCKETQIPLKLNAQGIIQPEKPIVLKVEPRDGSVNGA

COc1cc(F)cc(-c2nc3ccc(C(=O)NCCCN(C)C)cc3n2C2CCC2)c1
dynamic solubility: 186 µM

CCCC[C@H](NC(=O)CNC(=O)CNC(=O)CN1CCN(CC(=O)O)CCN(CC(=O)O)CCN(CC(=O)O)CC1)C(=O)N[C@H]1CC(=O)NCCCC[C@@H](C(N)=O)NC(=O)[C@H](Cc2c[nH]c3ccccc23)NC(=O)[C@H](CCCNC(=N)N)NC(=O)[C@@H](Cc2ccccc2)NC(=O)[C@H](Cc2c[nH]cn2)NC1=O [copper-64 labelled]
uptake ratio (female C57 mouse, B16/F1 melanoma; intravenous, 0.037 MBq, 24 h; relative to: tumour over kidneys): 1.11

[11CH3]c1ccc2nc(C3CCC3)n(-c3ccc4[nH]ncc4c3)c2n1
absorbed radiation dose (human male, small intestine): 13.7 µSv/MBq

O=C([O-])CN1CCN(CC(=O)[O-])CCN(CC(=O)NC[C@H]2CC[C@H](C(=O)N[C@H](Cc3cnc4ccccc4c3)C(=O)NCCCC[C@H](NC(=O)N[C@@H](CCC(=O)O)C(=O)O)C(=O)O)CC2)CCN(CC(=O)[O-])CC1.[64Cu+2]
absorbed dose (PET/CT, OLINDA/EXM dosimetry; healthy human volunteers, red marrow): 0.0115 mGy/MBq

C#CCOCCOCCOCCOCCn1cc(C(ONC(=O)/C=C/C(C)=C/C2(C)Oc3cc(N(C)C)ccc3C2=O)(c2ccccc2)c2ccccc2)nn1 (stereo not drawn)
hydrolytic stability (buffer; all pH values): stable

Cn1cc(-c2cc(N3CCCS3(=O)=O)ccc2N[C@H]2CC[C@H](C)CC2)c2cc[nH]c2c1=O
oral bioavailability (Sprague-Dawley rat, plasma; oral vs intravenous, 3 mg/kg oral, 1 mg/kg i.v.): 12.7%

CC(C)(Sc1ccncc1-c1ccc(C#N)c2ccccc12)C(=O)OC1OC(C(=O)O)C(O)C(O)C1O (stereo not drawn)
renal clearance (human, urine; oral, 15 mg, 72 h, mild renal impairment): 163 mL/min

CCCC[C@H](NC(=O)CNC(=O)CNC(=O)CN1CCN(CC(=O)O)CCN(CC(=O)O)CC1)C(=O)N[C@H]1CC(=O)NCCCC[C@@H](C(N)=O)NC(=O)[C@H](Cc2c[nH]c3ccccc23)NC(=O)[C@H](CCCNC(=N)N)NC(=O)[C@@H](Cc2ccccc2)NC(=O)[C@H](Cc2c[nH]cn2)NC1=O [gallium-67 labelled]
urinary excretion (C57 mice, female, B16/F1 melanoma, urine; intravenous, 0.037 MBq, 24 h): 94.57 ± 0.25%

COc1cc(CNC(=O)C[C@H](C)CCC=C(C)C)ccc1OCc1cn(-c2cccc(C(F)(F)F)c2)nn1
growth percent (DU-145; SRB; 10 µM, 48 h): 101%

O=C(Nc1ccc2c(c1)CN(c1ccc(Br)cc1)C2=O)N1CCN(c2ccc(F)cc2)CC1
remaining parent compound (mouse C57BL/6, liver microsomes; 90 min): 88.6 ± 1.05%

NC12CNCCNCC(NCc3ccc(CNC(=O)CCCC(=O)NCc4ccc(-c5nncnn5)cc4)cc3)(CNCCNC1)CNCCNC2.[64Cu+2]
mean absorbed dose (OLINDA dosimetry; total body; pretargeting, 48-h interval): 0.0347 rad/mCi

COc1ccc(-c2ccn(CC[C@](C)(C(=O)NO)S(C)(=O)=O)c(=O)c2)c(F)c1
clearance (CF-1 mouse, female; subcutaneous, 18.75 mg/kg): 63.2 ± 13 mL/min/kg

[64Cu+2].c1cnc(CNCc2ccc(CN3CCCN4CCNCCCN(CC4)CC3)cc2)nc1
tissue uptake (CXCR4; NOD/SCID mouse, U87 and U87-stb-CXCR4 xenografts, kidney; iv, 120 min, ex vivo): 34.7 ± 9.75 %ID/g

O=C([O-])CN1CCN(CC(=O)[O-])CCN(C(CCC(=O)NCCCCCN(CCCC[C@H](NC(=O)N[C@@H](CCC(=O)O)C(=O)O)C(=O)O)C(=O)c2ccc(I)cc2)C(=O)O)CCN(CC(=O)[O-])CC1.[68Ga+3] (stereo partly drawn)
SUVmean (PET/CT; human, normal liver): ~3.1

CCCC[C@H](NC(C)=O)C(=O)N[C@H]1CC(=O)NCCCC[C@@H](C(=O)N[C@@H](C(=O)N2CCC[C@@H]2C(N)=O)C(C)C)NC(=O)[C@H](Cc2c[nH]c3ccccc23)NC(=O)[C@H](CCCN=C(N)N)NC(=O)[C@@H](Cc2ccc3ccccc3c2)NC(=O)[C@@H]2CCCN2C1=O
plasma histamine (healthy dogs, plasma; subcutaneous, 2.25 mg/kg per day, day 1, 1 h post-dose, median): 8.8 ng/mL

COC[C@@H](CC(C)C)NC(=O)c1ccc(CO)c(CO)c1
metabolite peak area (LC-MS; human liver microsomes; 10 µM of parent drug, 60 min, pH 7.4, added: NADPH; relative to: parent drug at time zero): 1.1%

NS(=O)(=O)c1ccc(N2N=C(C(F)(F)F)CC2c2ccc(F)cc2F)cc1 (stereo not drawn)
elimination rate ratio (male Wistar rat, liver microsomes; 20 µM, pH 7.4; relative to: human over rat): 2.2 fold

COc1cc(NC(C)=O)c2c(c1O)-c1c(OC)c(OC)cc3c1C(C2)N(C)CC3 (stereo not drawn)
Vd/F (male Wistar rat, plasma; oral, 200 mg/kg): 9.6 L/kg

O=S(=O)(c1ccccc1)N1CCCCC1
recovery (sodium borate buffer; 24 h, pH 8.0, hydrolytic stability): 67%

CCCC[C@H](NC(=O)[C@H](CCC(=O)O)NC(=O)[C@H](CCCNC(=N)N)NC(=O)[C@H](CCC(N)=O)NC(=O)[C@H](CC(C)C)NC(=O)[C@H](CC(C)C)NC(=O)[C@H](CS)NC(=O)[C@H](CCC(N)=O)NC(=O)[C@H](C)NC(=O)[C@H](CCCNC(=N)N)NC(=O)CNC(=O)[C@H](CCCCN)NC(=O)[C@H](CCC(=O)O)NC(=O)[C@H](CC(=O)O)NC(=O)[C@H](CC(C)C)NC(=O)[C@H](CC(C)C)NC(=O)[C@]1(C)CCCC=CCCCCCC[C@@](C)(NC(=O)[C@H](Cc2ccccc2)NC(C)=O)C(=O)N[C@@H](CCCCN)C(=O)N[C@@H](Cc2c[nH]cn2)C(=O)N[C@@H](CS)C(=O)N[C@@H](CCC(N)=O)C(=O)N[C@@H](C)C(=O)N[C@@H](CC(=O)O)C(=O)N1)C(=O)N[C@H](C(=O)N[C@@H](CCC(N)=O)C(=O)N[C@@H](CO)C(=O)N[C@@H](CC(C)C)C(=O)N[C@@H](CCC(=O)O)C(=O)N[C@@H](CCC(N)=O)C(=O)N[C@@H](CCC(N)=O)C(=O)N[C@@H](CC(C)C)C(=O)N[C@H](C(=O)N[C@@H](CC(C)C)C(=O)N[C@@H](CCC(=O)O)C(=O)N[C@@H](CCCCN)C(=O)N[C@@H](CCC(=O)O)C(=O)N[C@@H](CCCCN)C(=O)N[C@@H](CC(C)C)C(N)=O)C(C)C)C(C)C
alpha-helicity (circular dichroism; sodium acetate buffer; 2.5 to 10 µM, pH 3.6, 20 °C): 37%

C[C@H](CN(C)Cc1ccccc1)NC(=O)c1ccc(-c2noc(C(F)(F)[18F])n2)cc1
muscle uptake (dynamic PET/CT; Sprague-Dawley rat, female; intravenous, dose not given, peak and plateau): 0.6 SUV

CN1CCC=C(C(=O)O)C1
metabolite formation ratio (human liver microsomes; 90 min, pH 7.4; relative to: liver microsomes over liver cytosol): ~12 fold

COc1cc(CNC(=O)C[C@H](C)CCC=C(C)C)ccc1O
growth percent (RXF 393; SRB; 10 µM, 48 h): 104%

NC(=O)c1cnc2[nH]ccc2c1NC1C2CC3CC1CC(OS(=O)(=O)O)(C3)C2 (stereo not drawn)
AUC(0-t) (Japanese adults, normal hepatic function, plasma; oral, 150 mg single dose): 2920 ng·h/mL

NS(=O)(=O)Nc1ncnc(OCCOc2ncc(Br)cn2)c1-c1ccc(Br)cc1
contribution to clearance (Cytochrome P450 3A12 (Canis lupus familiaris, UniProt P24463); item: compound formation; dog male): 100%

N=C(N)NCCC[C@@H]1NC(=O)[C@H](CCCCNC(=O)CNC(=O)CNC(=O)CNC(=O)CC[C@H](NC(=O)CNC(=O)CNC(=O)CNC(=O)CN2CCN(CC(=O)O)CCN(CC(=O)O)CCN(CC(=O)O)CC2)C(=O)NCC(=O)NCC(=O)NCC(=O)NCCCC[C@@H]2NC(=O)[C@@H](Cc3ccccc3)NC(=O)[C@H](CC(=O)O)NC(=O)CNC(=O)[C@H](CCCNC(=N)N)NC2=O)NC(=O)[C@@H](Cc2ccccc2)NC(=O)[C@H](CC(=O)O)NC(=O)CNC1=O [indium-111 labelled]
tissue uptake (female athymic nu/nu mice, kidney; intravenous, 24 h): 2.08 ± 0.16 %ID/g

O=C(O)[C@@H]1C[C@@H](O)CN1C(=O)[C@@H]1CCCN1
log beta (potentiometric titration; 37 °C, added: Fe(III)): 7.79

C=CC(=O)Nc1cc(Nc2nccc(-c3c[nH]c4ccccc34)n2)c(OC)cc1N(C)CCN(C)C
median trough concentration (UHPLC-MS/MS; human, NSCLC patients, plasma; oral, 80 mg daily, steady state, at least 14 d treatment): 20 ng/mL

CCn1c(=O)n(CCO)c(=O)c2c1nc(/C=C/c1ccc(OC)c(OC)c1)n2C
metabolite to parent AUCinf ratio (healthy humans, plasma; oral, 40 mg, added: rifampin 600 mg/day): 0.0785

COC1C=COC2(C)Oc3c(C)c(O)c4c(c3C2=O)C2=NC3(CCN(CC(C)C)CC3)NC2=C(NC(=O)C(C)=CC=CC(C)C(O)C(C)C(O)C(C)C(OC(=O)Nc2cnccn2)C1C)C4=O (stereo not drawn)
bioavailability (female CD-1 mouse, plasma; oral, 10 mg/kg): 73.6%

Cc1ccc(/N=N/c2c(O)ccc3ccccc23)c(C)c1
elimination half-life (Sprague-Dawley rats both sexes, whole blood; oral, 50 mg/kg): 1.81 h

O=C(CCCCC[N+]#[C][99Tc-5]([C]#[N+]CCCCCC(=O)N[C@H]1C(O)O[C@H](CO)[C@@H](O)[C@@H]1O)([C]#[N+]CCCCCC(=O)N[C@H]1C(O)O[C@H](CO)[C@@H](O)[C@@H]1O)([C]#[N+]CCCCCC(=O)N[C@H]1C(O)O[C@H](CO)[C@@H](O)[C@@H]1O)([C]#[N+]CCCCCC(=O)N[C@H]1C(O)O[C@H](CO)[C@@H](O)[C@@H]1O)[C]#[N+]CCCCCC(=O)N[C@H]1C(O)O[C@H](CO)[C@@H](O)[C@@H]1O)N[C@H]1C(O)O[C@H](CO)[C@@H](O)[C@@H]1O (stereo partly drawn)
kidney/tumour ratio (biodistribution; BALB/c nude mouse PANC-1 xenograft; relative to: kidney over tumour): 1.67

Cc1ccc(OCC(=O)N(Cc2cccs2)c2ccn[nH]2)cc1
dose-normalised AUC(0-last) (Sprague-Dawley rat, male, plasma; oral gavage, 100 mg/kg): 0.501 ng·h/mL/mg/kg

CC12CC(c3ccc(S(C)(=O)=O)cc3)C3=C4CCC(=O)C=C4CCC3C1CCC2(O)C(F)(F)C(F)(F)F (stereo not drawn)
blood to plasma ratio (item: total radioactivity; human, whole blood and plasma; oral, 5 mg, 48 h, [14C]-labelled, single dose, geometric mean; relative to: blood over plasma): 0.79

CCCC[C@@H]1NC(=O)[C@@H](NC(=O)[C@H](CCC(=O)O)NC(=O)CNC(=O)CN2CCN(CC(=O)O)CCN(CC(=O)O)CCN(CC(=O)O)CC2)CCCCNC(=O)C[C@@H](C(N)=O)NC(=O)[C@H](C(C)C)NC(=O)[C@@H]2CCCN2C(=O)[C@H](CCCNC(=N)N)NC(=O)CNC(=O)[C@H](Cc2c[nH]c3ccccc23)NC(=O)[C@H](CCCNC(=N)N)NC(=O)[C@@H](Cc2ccccc2)NC(=O)[C@H](Cc2c[nH]cn2)NC(=O)[C@H](CCC(=O)O)NC1=O [gallium-67 labelled]
tissue uptake (C57 mice with B16/F1 melanoma, brain; intravenous, 2 h): 0.01 ± 0.01 %ID/g

CC(C)C[C@@H](NC(=O)[C@H](NC(=O)[C@H]1CCCN1)[C@H](C)O)C(=O)N[C@H](Cc1c[nH]cn1)C(=O)N[C@@H](C(=O)N[C@H](Cc1c[nH]cn1)C(=O)N[C@H](CC(N)=O)C(=O)N[C@H](CCCNC(=N)N)C(=O)N[C@H](CCCNC(=N)N)C(=O)N[C@H](CCCNC(=N)N)C(=O)N[C@H](CCCNC(=N)N)C(=O)N[C@H](CCCNC(=N)N)C(N)=O)[C@H](C)O
bioavailability (beagle dog, plasma; oral, 20 mg/kg, single dose): 2%

CC(CN1CCC(Cc2ccccc2)CC1)C(O)c1ccc(O)cc1 (stereo not drawn)
locomotor activity (rat; intraperitoneal, dose not given, 2 h cumulative, high doses): increased

COc1ccc(CCCN[C@@H]2CCC[C@H]2CN[C@H]2CCC[C@@H]2CNCCCCN[C@H]2CCC[C@@H]2CN)cc1
Ki (MAOA (Homo sapiens, UniProt P21397); enzyme activity, inhibitor; added: tyramine 50 µM): 190 ± 32 µM

O=c1c2ccccc2[se]n1CCCCCCn1[se]c2ccccc2c1=O
solubility (20% Soluplus in water; 24 h, 25 °C, 200 mg/mL): 883 ± 25 µg/mL (≈ 1850 µM)

Repeated from above:
N=C(N)NCCC[C@@H]1NC(=O)[C@H](CCCCNC(=O)CNC(=O)CNC(=O)CNC(=O)CC[C@H](NC(=O)CNC(=O)CNC(=O)CNC(=O)CN2CCN(CC(=O)O)CCN(CC(=O)O)CCN(CC(=O)O)CC2)C(=O)NCC(=O)NCC(=O)NCC(=O)NCCCC[C@@H]2NC(=O)[C@@H](Cc3ccccc3)NC(=O)[C@H](CC(=O)O)NC(=O)CNC(=O)[C@H](CCCNC(=N)N)NC2=O)NC(=O)[C@@H](Cc2ccccc2)NC(=O)[C@H](CC(=O)O)NC(=O)CNC1=O [indium-111 labelled]
tissue uptake (female athymic nu/nu mice, kidney; intravenous, 24 h): 2.08 ± 0.16 %ID/g

NC12CNCCNCC(NCc3ccc(CNC(=O)CCCC(=O)NCc4ccc(-c5nncnn5)cc4)cc3)(CNCCNC1)CNCCNC2.[64Cu+2]
mean absorbed dose (OLINDA dosimetry; total body; pretargeting, 48-h interval): 0.0347 rad/mCi

CC(C)(Sc1ccncc1-c1ccc(C#N)c2ccccc12)C(=O)OC1OC(C(=O)O)C(O)C(O)C1O (stereo not drawn)
renal clearance (human, urine; oral, 15 mg, 72 h, mild renal impairment): 163 mL/min

COc1cc(CNC(=O)C[C@H](C)CCC=C(C)C)ccc1OCc1cn(-c2cccc(C(F)(F)F)c2)nn1
growth percent (DU-145; SRB; 10 µM, 48 h): 101%
